# Experimental data of several laboratories.
# Lines come from different studies, so protocols differ. Numbers after ± are the reported error.
# Eif4e: Eif4e fragment (Mus musculus)
# TFRC residues 1-760: TFRC residues 1-760 (Homo sapiens, UniProt P02786)
# Chain of UniProt P02786 (whole entry, looked up): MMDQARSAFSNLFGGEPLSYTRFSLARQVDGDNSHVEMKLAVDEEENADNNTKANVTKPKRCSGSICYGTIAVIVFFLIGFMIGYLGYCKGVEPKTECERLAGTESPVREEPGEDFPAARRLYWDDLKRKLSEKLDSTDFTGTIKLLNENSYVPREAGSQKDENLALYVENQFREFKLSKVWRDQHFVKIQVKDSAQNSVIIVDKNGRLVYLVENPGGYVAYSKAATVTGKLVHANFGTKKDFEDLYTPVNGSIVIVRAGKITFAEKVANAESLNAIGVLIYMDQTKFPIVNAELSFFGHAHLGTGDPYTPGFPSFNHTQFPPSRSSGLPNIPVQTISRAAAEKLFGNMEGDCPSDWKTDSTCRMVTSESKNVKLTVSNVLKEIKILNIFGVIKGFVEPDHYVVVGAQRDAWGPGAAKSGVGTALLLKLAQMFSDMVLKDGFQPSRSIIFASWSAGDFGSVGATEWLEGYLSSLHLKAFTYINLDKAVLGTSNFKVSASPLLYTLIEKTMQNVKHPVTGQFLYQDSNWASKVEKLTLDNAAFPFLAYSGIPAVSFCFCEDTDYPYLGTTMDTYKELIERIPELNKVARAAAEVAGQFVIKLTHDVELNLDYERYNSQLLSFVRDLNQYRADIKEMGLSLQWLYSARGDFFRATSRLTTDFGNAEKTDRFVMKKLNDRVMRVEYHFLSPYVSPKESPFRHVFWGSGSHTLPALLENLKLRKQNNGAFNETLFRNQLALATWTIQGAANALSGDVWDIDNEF
# T1: NR1I2/RXRA (Homo sapiens); chain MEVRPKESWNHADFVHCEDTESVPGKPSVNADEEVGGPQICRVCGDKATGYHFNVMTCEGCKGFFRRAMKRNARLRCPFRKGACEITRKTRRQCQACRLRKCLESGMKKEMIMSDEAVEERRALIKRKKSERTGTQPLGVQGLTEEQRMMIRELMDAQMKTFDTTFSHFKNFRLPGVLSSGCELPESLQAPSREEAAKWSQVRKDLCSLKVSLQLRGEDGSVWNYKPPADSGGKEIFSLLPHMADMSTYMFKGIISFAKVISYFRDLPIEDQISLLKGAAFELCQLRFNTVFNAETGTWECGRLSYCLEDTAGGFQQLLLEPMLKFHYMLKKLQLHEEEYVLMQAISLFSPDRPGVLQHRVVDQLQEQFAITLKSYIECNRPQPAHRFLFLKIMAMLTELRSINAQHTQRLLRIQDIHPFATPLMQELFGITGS; chain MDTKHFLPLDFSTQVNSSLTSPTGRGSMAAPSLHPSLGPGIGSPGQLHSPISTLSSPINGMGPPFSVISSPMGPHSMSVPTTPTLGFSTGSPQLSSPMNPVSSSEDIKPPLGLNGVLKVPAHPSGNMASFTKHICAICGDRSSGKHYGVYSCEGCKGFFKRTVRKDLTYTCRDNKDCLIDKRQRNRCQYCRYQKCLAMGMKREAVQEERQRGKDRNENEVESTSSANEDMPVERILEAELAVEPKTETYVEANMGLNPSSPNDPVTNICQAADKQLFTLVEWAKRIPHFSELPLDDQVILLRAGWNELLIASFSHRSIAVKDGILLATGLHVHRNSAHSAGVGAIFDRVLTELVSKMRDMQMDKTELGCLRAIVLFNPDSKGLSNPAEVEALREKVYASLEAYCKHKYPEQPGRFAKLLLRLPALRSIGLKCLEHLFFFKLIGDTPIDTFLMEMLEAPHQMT
# B1: UGT1A9 (Homo sapiens, UniProt O60656); chain GKLLVVPMDGSHWFTMRSVVEKLILRGHEVVVVMPEVSWQLGRSLNCTVKTYSTSYTLEDLDREFKAFAHAQWKAQVRSIYSLLMGSYNDIFDLFFSNCRSLFKDKKLVEYLKESSFDAVFLDPFDNCGLIVAKYFSLPSVVFARGILCHYLEEGAQCPAPLSYVPRILLGFSDAMTFKERVRNHIMHLEEHLLCHRFFKNALEIASEILQTPVTEYDLYSHTSIWLLRTDFVLDYPKPVMPNMIFIGGINCHQGKPLPMEFEAYINASGEHGIVVFSLGSMVSEIPEKKAMAIADALGKIPQTVLWRYTGTRPSNLANNTILVKWLPQNDLLGHPMTRAFITHAGSHGVYESICNGVPMVMMPLFGDQMDNAKRMETKGAGVTLNVLEMTSEDLENALKAVINDKSYKENIMRLSSLHKDRPVEPLDLAVFWVEFVMRHKGAPHLRPAAHDLTWYQYHSLDVIGFLLAVVLTVAFITFKCCAYGYRKCLGKKGRVKKAHKSKTH
# Chain of UniProt O15527 (whole entry, looked up): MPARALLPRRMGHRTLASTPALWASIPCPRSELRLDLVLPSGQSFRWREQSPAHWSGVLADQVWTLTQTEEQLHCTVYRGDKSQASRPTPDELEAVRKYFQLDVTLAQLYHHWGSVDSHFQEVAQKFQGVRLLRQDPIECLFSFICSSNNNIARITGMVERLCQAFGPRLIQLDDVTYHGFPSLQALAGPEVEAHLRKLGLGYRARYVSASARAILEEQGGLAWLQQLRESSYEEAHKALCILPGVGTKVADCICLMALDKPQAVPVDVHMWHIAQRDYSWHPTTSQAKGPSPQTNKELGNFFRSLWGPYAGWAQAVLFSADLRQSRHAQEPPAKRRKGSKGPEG
# Chain of UniProt Q4VGL6 (whole entry, looked up): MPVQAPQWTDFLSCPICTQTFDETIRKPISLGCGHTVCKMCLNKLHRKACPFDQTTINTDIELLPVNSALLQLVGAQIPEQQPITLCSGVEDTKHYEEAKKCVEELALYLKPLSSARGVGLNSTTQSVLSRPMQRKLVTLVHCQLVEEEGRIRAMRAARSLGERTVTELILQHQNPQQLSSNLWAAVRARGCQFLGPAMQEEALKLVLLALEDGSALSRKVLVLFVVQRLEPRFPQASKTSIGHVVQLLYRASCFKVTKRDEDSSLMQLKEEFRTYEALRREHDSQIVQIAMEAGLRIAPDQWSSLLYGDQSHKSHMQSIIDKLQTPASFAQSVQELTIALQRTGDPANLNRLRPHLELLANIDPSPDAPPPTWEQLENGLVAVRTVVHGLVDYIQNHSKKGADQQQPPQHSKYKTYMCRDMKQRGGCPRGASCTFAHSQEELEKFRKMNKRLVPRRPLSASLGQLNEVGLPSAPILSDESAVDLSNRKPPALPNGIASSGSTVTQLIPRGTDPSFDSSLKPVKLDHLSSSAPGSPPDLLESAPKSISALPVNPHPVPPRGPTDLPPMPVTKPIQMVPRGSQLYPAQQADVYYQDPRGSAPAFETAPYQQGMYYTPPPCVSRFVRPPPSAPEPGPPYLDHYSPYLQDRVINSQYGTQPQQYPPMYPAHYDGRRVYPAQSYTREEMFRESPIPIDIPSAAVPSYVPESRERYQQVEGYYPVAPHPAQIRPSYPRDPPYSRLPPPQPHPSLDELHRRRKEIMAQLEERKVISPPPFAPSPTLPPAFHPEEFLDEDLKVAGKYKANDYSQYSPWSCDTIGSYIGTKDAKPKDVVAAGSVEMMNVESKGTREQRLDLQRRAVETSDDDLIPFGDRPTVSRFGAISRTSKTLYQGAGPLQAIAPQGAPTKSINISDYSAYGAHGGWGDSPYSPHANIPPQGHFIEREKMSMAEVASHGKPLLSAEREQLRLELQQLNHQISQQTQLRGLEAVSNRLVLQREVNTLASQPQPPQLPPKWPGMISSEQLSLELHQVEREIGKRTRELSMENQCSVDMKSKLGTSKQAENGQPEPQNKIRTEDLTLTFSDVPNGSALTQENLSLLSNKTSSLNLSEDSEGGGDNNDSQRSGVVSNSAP
# Chain of UniProt Q9NR56 (whole entry, looked up): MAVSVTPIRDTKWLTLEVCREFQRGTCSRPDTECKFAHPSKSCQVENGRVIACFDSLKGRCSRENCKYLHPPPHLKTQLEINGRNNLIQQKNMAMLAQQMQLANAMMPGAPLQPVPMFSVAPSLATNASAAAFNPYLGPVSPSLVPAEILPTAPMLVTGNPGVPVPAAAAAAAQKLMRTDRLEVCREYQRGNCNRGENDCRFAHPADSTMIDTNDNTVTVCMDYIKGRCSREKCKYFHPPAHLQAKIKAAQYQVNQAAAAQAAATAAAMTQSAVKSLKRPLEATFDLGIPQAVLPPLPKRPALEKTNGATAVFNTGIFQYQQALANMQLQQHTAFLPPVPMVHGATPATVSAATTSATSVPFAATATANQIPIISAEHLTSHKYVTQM
# Chain of UniProt O43390 (whole entry, looked up): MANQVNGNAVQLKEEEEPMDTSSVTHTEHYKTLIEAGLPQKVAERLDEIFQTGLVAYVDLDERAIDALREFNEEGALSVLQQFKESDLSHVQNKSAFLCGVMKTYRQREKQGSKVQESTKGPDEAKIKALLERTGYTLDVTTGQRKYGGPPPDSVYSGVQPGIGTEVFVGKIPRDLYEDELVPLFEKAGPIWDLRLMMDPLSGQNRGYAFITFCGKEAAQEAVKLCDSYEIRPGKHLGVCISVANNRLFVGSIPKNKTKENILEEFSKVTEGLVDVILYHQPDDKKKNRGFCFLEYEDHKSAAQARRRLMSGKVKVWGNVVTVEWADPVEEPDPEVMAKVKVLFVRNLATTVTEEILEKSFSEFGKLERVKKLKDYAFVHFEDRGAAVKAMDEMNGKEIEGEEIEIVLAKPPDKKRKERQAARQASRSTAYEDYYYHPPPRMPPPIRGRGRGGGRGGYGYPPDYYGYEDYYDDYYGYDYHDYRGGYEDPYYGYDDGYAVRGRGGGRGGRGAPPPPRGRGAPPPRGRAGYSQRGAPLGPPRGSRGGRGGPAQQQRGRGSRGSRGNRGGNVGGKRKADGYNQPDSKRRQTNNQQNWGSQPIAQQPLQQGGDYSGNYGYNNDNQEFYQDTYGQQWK
# Chain of UniProt P09914 (whole entry, looked up): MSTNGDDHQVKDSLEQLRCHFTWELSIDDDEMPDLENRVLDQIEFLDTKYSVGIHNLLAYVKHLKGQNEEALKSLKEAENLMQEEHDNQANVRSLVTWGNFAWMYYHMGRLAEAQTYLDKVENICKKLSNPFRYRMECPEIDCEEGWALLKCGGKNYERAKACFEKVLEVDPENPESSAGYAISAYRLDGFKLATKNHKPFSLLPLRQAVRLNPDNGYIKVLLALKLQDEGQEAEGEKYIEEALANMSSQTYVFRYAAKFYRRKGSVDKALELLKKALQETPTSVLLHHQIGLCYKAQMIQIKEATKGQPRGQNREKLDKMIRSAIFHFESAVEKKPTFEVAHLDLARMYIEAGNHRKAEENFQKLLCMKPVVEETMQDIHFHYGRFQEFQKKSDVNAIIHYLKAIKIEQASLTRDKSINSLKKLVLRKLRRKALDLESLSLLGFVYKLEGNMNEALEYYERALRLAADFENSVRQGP
Substance,tested on,test,test system,conditions,measurement,result
CACGACGCAAGGGACCACAGGTTTTGCGAACGCGGGTAGGCGCACCCTTCGCACAAACGTCCCCAGCACGACACCGCAGAGGCA (XNA; 5-ethynyl-dU in flow assay),Streptavidin fragment (Streptomyces avidinii),SPR,,37 °C,Kd,53.3 ± 5.89 nM
GGCCUAGCCGUGGGUUCUACCACGUCUCAAGGCU (structured RNA),"Rc3h1 171-326 (Mus musculus, UniProt Q4VGL6)",EMSA,,with: MgCl2 1 mM,Kd,547 ± 15.5 nM
GAGUUGAGUUGAGUUGAGUUGAGUUGAGUUGAGUUGAGUUGAGUUGAGUUGAGUU (ssRNA; single strand),"mtrB full length assumed T30V (Bacillus subtilis, UniProt P19466)",filter binding,,with: no tryptophan,Kd,115 ± 16 nM
"GGGAGACCGGCCUCGA (ssRNA; 5' triphosphate, linear)","IFIT1 full length assumed (Homo sapiens, UniProt P09914)",BLI,,,Kd,55.8 nM
"CGATCATGGAGGCTANCGCTCCCGTTACAG / CTGTAACGGGAGCGCTAGCCTCCATGATCG (dsDNA; blunt, indole analog position 16)","OGG1 full length assumed (Homo sapiens, UniProt O15527)",EMSA,,"25 °C, product formed during incubation",Kd,< 0.003 nM
"GAG (ssRNA; m7G 5'-5' triphosphate cap, N6-methyl A2)",Eif4e,fluorescence quenching titration,,,Kd,35.2 ± 0.8 nM
GGGAGGGAGGGAGGGA (structured RNA; G-quadruplex),"HNRNPR 165-444 (Homo sapiens, UniProt O43390)",fluorescence polarization,,,Kd,2.2 ± 1.1 nM
CCACAAAGAGUCUACAUGUCUAGGGUCUAGACAUGUUCAGCUUUGUGG (structured RNA stem-loop with bulge),LARP6 fragment (Homo sapiens),EMSA,lysate,"Scatchard, overexpressed, not purified",Kd,1.4 nM
CUGCAUAGGC (ssRNA),Fab BRG Fab,filter binding,,,Kd,15 ± 2 nM
CCUCUGCUUGCUGUUUAUGUUAAUGCGCUUGAACCCCACUGGCCC (ssRNA),"MBNL1 1-260 (Homo sapiens, UniProt Q9NR56)",EMSA,,,Kd,11 nM
TTAGGGTTAGGGTTAGGG (ssDNA),CTC1/STN1/TEN1 (Homo sapiens),double-filter binding,single-stranded DNA,,Kd,21.6 ± 1 nM
TAGTGAACTTTCGGTGAACCCTGATCAGCGTTCGATGCTTCCGACTAATCAGCCATATCAGCTTACGACTA (dsDNA),RXRA/RARA ; (Mus musculus),switchSENSE,"double-stranded DNA, one strand shown",with: 9-cis RA,Kd,5 ± 1 nM
AUGCAUAGGU (ssRNA),Fab BRG Fab,filter binding,,,Kd,29 ± 3 nM
TGAACTTGCTGACCC (dsDNA),"T1, NR1I2/RXRA (Homo sapiens)",fluorescence anisotropy,"double-stranded DNA, one strand shown","with: SR12813, 9-cis-retinoic acid",Kd,206 ± 53 nM
"CACGACGCAAGGGACCACAGGTGGACCGCTAACTCCGGCCCAGGTCCAGCACGACACCGCAGAGGCA (ssDNA; indole-modified 5-ethynyl-dU at 22, 30, 34, 45)","CSPG4 30-2224 (Homo sapiens, UniProt Q6UVK1)",SPR single-cycle kinetics,,with: Mg2+ 5 mM,Kd,29 nM
"GAG (ssRNA; m7G 5'-5' triphosphate cap, N6,2'-O-dimethyl A2)",Eif4e,fluorescence quenching titration,,,Kd,32.8 ± 0.8 nM
B1 (UGT1A9),O=C1[C@H](CC[C@H](O)c2ccc(F)cc2)[C@@H](c2ccc(O)cc2)N1c1ccc(F)cc1,steady-state kinetics,,"pH 7.4, 37 °C",Km,268 µM
"GAG (ssRNA; m7G 5'-5' triphosphate cap, A2)",Eif4e,fluorescence quenching titration,,,Kd,26.6 ± 0.9 nM
ACTCATAGGGTTAGGGGCTGCTGGCCAGATACTCAGATGTAGGGTTACTATGAGC (ssDNA; 5' C6 spacer),TFRC residues 1-760,flow cytometry,PL45,"not displaced by anti-CD71, not purified",Kd,11 nM
AUGCAUAGGC (ssRNA),Fab BRG Fab,filter binding,,,Kd,10 ± 2 nM
TTACTCATAGGGTTAGGGGCTGCTGGCCAGATACTCAGATGGTAGGGTTACTATGAGCAA (ssDNA; 5' C6 spacer),TFRC residues 1-760,flow cytometry,PL45,not purified,Kd,< 15 nM
CCGGTCGTACGGAAAACCTGTATTTTCAGGGCTCCGG (dsDNA),POLG2 fragment (Homo sapiens),EMSA,"double-stranded DNA, one strand shown",,Kd,490 nM

# For quick reference, copied from above:
Substance,tested on,test,test system,conditions,measurement,result
TGAACTTGCTGACCC (dsDNA),"T1, NR1I2/RXRA (Homo sapiens)",fluorescence anisotropy,"double-stranded DNA, one strand shown","with: SR12813, 9-cis-retinoic acid",Kd,206 ± 53 nM
"CACGACGCAAGGGACCACAGGTGGACCGCTAACTCCGGCCCAGGTCCAGCACGACACCGCAGAGGCA (ssDNA; indole-modified 5-ethynyl-dU at 22, 30, 34, 45)","CSPG4 30-2224 (Homo sapiens, UniProt Q6UVK1)",SPR single-cycle kinetics,,with: Mg2+ 5 mM,Kd,29 nM
